Measurements gathered from unrelated publications.
Protocols differ between the studies behind these lines. Numbers after ± are the reported error.
Cell line: HCT-15

SMILES = Cn1cncc1C1=CN(c2ncnc3[nH]cnc23)CCS1; setting = colon cancer; endpoint = CC50; result = > 200000 nM
SMILES = COc1c(C)c2c(c(O)c1C/C=C(\C)CCC(=O)O)C(=O)OC2; effect on = cell proliferation; sample = colon cancer; endpoint = IC50; result = 200 nM
SMILES = COc1cc(CCC[P+](c2ccccc2)(c2ccccc2)c2ccccc2)c(OC)c2c1OCO2.[I-]; method = SRB; endpoint = LC50; result = > -4 log M
SMILES = CN1CCN(C2(CNC3CCN(c4cccc(-c5cc6cc(F)ccc6[nH]5)c4)CC3)CCC2)CC1; endpoint = GI50; result = 455 nM
SMILES = CCN(CC)c1ccc(C=NNC(=O)CSc2nc3ccccc3c(=O)n2Cc2ccc(S(N)(=O)=O)cc2)c(O)c1; method = NCI five-dose screen; endpoint = CC50; result = > 100000 nM
SMILES = Nc1ncc(-c2nc(N3CCOCC3)nc(N3CCOCC3)n2)c(C(F)F)n1; time = 72 h; endpoint = GI50; result = 161 nM
SMILES = COc1c(CCC[P+](c2ccccc2)(c2ccccc2)c2ccccc2)cc2c(c1OC)OCO2.[I-]; method = SRB; endpoint = LC50; result = > -4 log M
SMILES = N.N.[Cl][Pt][Cl]; effect on = cell growth; method = MTT; time = 48 h; setting = LED light photolysis 1 h; endpoint = IC50; result = 16800 ± 4800 nM

Excerpt of the above:
SMILES = COc1cc(CCC[P+](c2ccccc2)(c2ccccc2)c2ccccc2)c(OC)c2c1OCO2.[I-]; method = SRB; endpoint = LC50; result = > -4 log M
